Assay results from different studies.
Each numbered part is a random draw from the data of one study; scales do not carry over between parts. Changes are numbered by the printed parent chain.

Sample 1 — target: BATF, bZIP domain (human); method: DHFR protein complementation; medium: yeast; baseline: wild-type JUN-FOS pair; reading: higher = stronger binding
Notes: single substitutions, most at no-binding floor
Starting sequence: JUN, bZIP domain (human); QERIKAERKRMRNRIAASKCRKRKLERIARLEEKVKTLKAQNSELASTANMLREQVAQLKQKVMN; partner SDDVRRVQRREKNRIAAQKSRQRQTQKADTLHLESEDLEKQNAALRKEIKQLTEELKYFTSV
| Substitution | binding fitness |
| --- | --- |
| T48W | -0.171 natural log |
| V56A | -0.41 natural log |
| K39C | -0.433 natural log |
| K34C | -0.156 natural log |
| E54V | -0.161 natural log |
| E44A | -0.0135 natural log |
| Q55T | -0.135 natural log |
| Q55Y | -0.284 natural log |

Sample 2 — method: protein-binding microarray; form: double-stranded DNA, one strand shown; medium: in vitro; tested at: 940 nM top; notes: 60-bp whole probe; added: salmon DNA 0.4 mg/ml; baseline: random background probes; reading: higher = stronger binding; all sequences stand within: GCCTAGCAC … GTCTTGATTCGCTTGACGCTGCTG
Target: Interferon regulatory factor 5, full length, phosphomimetic (IRF5, Homo sapiens, UniProt Q13568-2, residues 1-514, S451D/S453D/S456D/S462D)
| Strand | fitted relative affinity |
| --- | --- |
| TGAAGACTCTCTTGTCTGGATGTGCTA | 0.125 z-score |
| TCACATTTGGTTAGCGTACTGTGCTAG | 0.219 z-score |
| TTAGGTATCGGTCTCGGTTAGTGCTAG | 10 z-score |
| GACTGTTTCGGTCTCGGGACGTGCTAG | 7.71 z-score |
| TCAACTCTGGAGGTTGAGACTGTGCTA | -0.175 z-score |
| TTAGGACTGCTACTGCTATAGTGCTAG | -0.391 z-score |
| TATGGTATTTTTTTGTAATCGTGCTAG | 1.07 z-score |
| GACGGTCTCAGACTGGAGACGTGCTAG | -0.582 z-score |

Single results of other studies
P1: viral docking peptide; TSVRRALFTGGSD; partner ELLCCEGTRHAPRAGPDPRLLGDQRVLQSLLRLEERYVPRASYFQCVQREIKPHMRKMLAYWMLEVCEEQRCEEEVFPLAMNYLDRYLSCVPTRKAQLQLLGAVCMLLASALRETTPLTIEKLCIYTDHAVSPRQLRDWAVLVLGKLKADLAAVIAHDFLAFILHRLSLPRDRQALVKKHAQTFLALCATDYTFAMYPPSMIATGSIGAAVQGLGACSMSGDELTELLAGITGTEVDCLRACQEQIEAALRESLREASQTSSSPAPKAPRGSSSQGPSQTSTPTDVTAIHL
| Molecule | target or system | test | test system | conditions | scale | quantity | result |
| --- | --- | --- | --- | --- | --- | --- | --- |
| H2BC3 (Homo sapiens, UniProt P33778) | H2AC12 (Homo sapiens, UniProt Q96KK5) | cross-linking MS | – | hits only | – | interaction screen | cross-linked |
| P1 S12F | CCND3, cyclin fold, Cln2 fusion (human) | yeast growth competition, sequencing | yeast | weak parent motif | baseline: not given, higher = stronger binding | normalised enrichment score | -0.0771 |

Some of these lines once more (sample 1):
| Substitution | binding fitness |
| --- | --- |
| E44A | -0.0135 natural log |
